# Measurements gathered from unrelated publications.
# ± gives the spread as reported. Ends that are not written are not given here. * marks the point of attachment.
# Cell line: MDA-MB-231
Substance,assay,conditions,scale,endpoint,result
Cn1cnc(N)c2ncnc1-2,MTT,"1 mM, 1 h pretreatment, with: LYN-1604 2.0 µM",reference: LYN-1604 alone,viability,increased
Dnp-KEQNPIYWARYADWLFTTPLLLLELALLVDADEGTG (DNP-labelled; Dnp = O=[N+]([O-])c1ccc(*)c([N+](=O)[O-])c1),ADCC,"1 µM, 4 h, pH 7.4, effector:target 50:1, with: anti-DNP antibody, PBMC",,cell lysis,40%
NCCC(=O)Nc1ccccc1/N=c1\cc(-c2ccc3nc(N)oc3c2)oc2ccc(F)cc12,"cell growth or viability, CCK-8",1 µM,,inhibition,> 70%
CNC(=O)c1cc(Oc2ccc(NC(=O)Nc3ccc(Cl)c(C(F)(F)F)c3)cc2)ccn1,cell proliferation,"1 µM, 72 h, colloidal and monomeric formulation",reference: untreated,inhibition,~65%
c1ccc(CN(Cc2cccc(CN(Cc3ccccc3)CC3CC3)n2)CC2CC2)cc1,Matrigel invasion,"100 nM, 22 h, with: CXCL12 200 ng/mL",,invasion inhibition,100%
COc1ncc(F)c(NCc2ccc(CNc3nc(OC)ncc3F)cc2)n1,cell invasion (Matrigel),"10 nM, with: CXCL12 200 ng/mL",,inhibition,> 60%
O=C(N/N=C/c1ccc(O)c(O)c1)c1cc2ccccc2cc1O,"endocytosis inhibitor, flow cytometry","80 µM, 1 h, 37 °C, with: lipopeptide-siRNA complex, methyl-β-cyclodextrin 3.5 mM",,siRNA uptake,decreased
COC(=O)c1c(-c2ccc(OC)cc2)c2n(c1C(=O)OC)CCn1cccc1-2,"cell growth or viability, MTT",48 h,,IC50,82.5 µM
CSc1nccc(NCc2ccc(CNc3ncc(F)cn3)cc2)n1,cell invasion (Matrigel),"100 nM, with: CXCL12 200 ng/mL",,inhibition,92%
O=c1[nH]nc(O)c2c(-c3cccc(O)c3)c3n(c12)CCn1cccc1-3,"cell growth or viability, MTT",48 h,,IC50,84.6 µM
COc1ccc(N2CCN(CC(=O)Nc3ccc(C4=NN(C(C)=O)C(c5ccc(Cl)cc5Cl)C4)cc3)CC2)cc1 (centres unmarked),"cell growth or viability, MTT",,,IC50,51.6 µM
COc1c(C=O)c(O)cc2c1C(=O)c1ccccc1C2=O,"chemotactic migration, inhibitor, Transwell","3 h, with: 10% FCS",,effective concentration range,1 to 10 µM
COc1cc([C@@H]2c3cc4c(cc3[C@@H](O[C@@H]3O[C@@H]5CO[C@@H](C)O[C@H]5[C@H](O)[C@H]3O)[C@H]3COC(=O)[C@H]23)OCO4)cc(OC)c1O,"cell growth or viability, MTT",48 h,,IC50,30.6 µM
Fc1cnc(NCc2ccc(CNc3nccc(C(F)(F)F)n3)cc2)nc1,cell invasion (Matrigel),"10 nM, with: CXCL12 200 ng/mL",,inhibition,> 60%
O=c1[nH]nc(O)c2c(-c3cccc([N+](=O)[O-])c3)c3n(c12)CCn1cccc1-3,"cell proliferation, MTT",48 h,,IC50,13.14 ± 0.005 µM
C#C[C@@]1(O)[C@@H](CO)O[C@@H](n2cc(Br)c3c(N)ncnc32)[C@@H]1O,SRB,48 h,,GI50,0.136 ± 0.08 µM
COC(=O)c1c(-c2ccccc2)c2n(c1C(=O)OC)CCn1cccc1-2,"cell growth or viability, MTT",48 h,,IC50,71.1 µM
heparin,"cell migration, wound healing","6 µM, 20 h",,maximal inhibition,~18%
O=c1[nH]nc(O)c2c(-c3ccccc3)c3n(c12)CCn1cccc1-3,"cell growth or viability, MTT",48 h,,IC50,87.3 µM
CCCCCCCC(=O)NCCCC[C@H](N)C(=O)NCCCNCCCCNCCCN,cell growth,"6 days, with: DFMO 5.0 mM, spermidine 0.5 µM, aminoguanidine 1.0 mM",,EC50,1.1 µM

# For quick reference, copied from above:
Substance,assay,conditions,scale,endpoint,result
C#C[C@@]1(O)[C@@H](CO)O[C@@H](n2cc(Br)c3c(N)ncnc32)[C@@H]1O,SRB,48 h,,GI50,0.136 ± 0.08 µM
Dnp-KEQNPIYWARYADWLFTTPLLLLELALLVDADEGTG (DNP-labelled; Dnp = O=[N+]([O-])c1ccc(*)c([N+](=O)[O-])c1),ADCC,"1 µM, 4 h, pH 7.4, effector:target 50:1, with: anti-DNP antibody, PBMC",,cell lysis,40%
